Measurements of several laboratories.
Every numbered part comes from another study and shows a few of its results, in no order.

Series 1
Target: Interferon regulatory factor 7, full length, phosphomimetic (IRF7, Homo sapiens, UniProt Q92985, residues 1-503, S101K/S471D/S472D/S475D/S476D/S477D/S483D/S484D/S487D)
Method: protein-binding microarray
Form: double-stranded DNA, one strand shown
Sample: in vitro
Concentration: 250 nM
Setting: 60-bp whole probe
Added: salmon DNA 0.4 mg/ml
Reference: random background probes
Reading: higher = stronger binding
Quantity: log fluorescence
Shared flanks, not repeated: GCCTAGCAC … GTCTTGATTCGCTTGACGCTGCTG
Construct (chain): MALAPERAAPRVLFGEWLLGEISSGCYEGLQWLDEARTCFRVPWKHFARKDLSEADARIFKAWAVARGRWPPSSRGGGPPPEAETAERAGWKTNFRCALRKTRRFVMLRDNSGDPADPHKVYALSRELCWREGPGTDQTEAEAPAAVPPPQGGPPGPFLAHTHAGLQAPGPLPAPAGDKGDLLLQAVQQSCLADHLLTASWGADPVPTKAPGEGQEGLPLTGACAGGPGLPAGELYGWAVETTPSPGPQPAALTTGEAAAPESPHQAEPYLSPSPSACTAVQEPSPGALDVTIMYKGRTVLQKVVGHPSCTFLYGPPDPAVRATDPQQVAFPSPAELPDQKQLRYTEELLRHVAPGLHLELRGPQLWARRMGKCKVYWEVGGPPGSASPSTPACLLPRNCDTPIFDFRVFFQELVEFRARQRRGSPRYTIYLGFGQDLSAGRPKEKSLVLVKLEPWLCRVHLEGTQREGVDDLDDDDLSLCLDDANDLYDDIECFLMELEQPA
GACGGTTTCGGGACTGGGGATGTGCTA: 3.7 z-score
TGAGATATCGGGACTGGATTAGTGCTA: -0.214 z-score
GACGATATAGGGTTTCGAGACGTGCTA: 1.99 z-score
TTAGGTTTCTGGACTGGGTTAGTGCTA: 0.724 z-score
GACGCTTTCGACTATCGGGACGTGCTA: 0.666 z-score
GACGGACTGGGTTTCGGAACGTGCTAG: 3.64 z-score
TTAGGTTTCGAGTTTCGGTTAGTGCTA: 12.6 z-score
GACTGTATCGGTTTCGGGACGTGCTAG: 4.17 z-score
TTAGATTTTTTTTCCTAATTGTGCTAG: 0.918 z-score
GAAGTTCTTTTTTTCAAGAAGTGCTAG: 0.911 z-score
GACGGTTTCGGTTCCGGGATGTGCTAG: 12.5 z-score
TTAGAATTCAGACTGGATTAGTGCTAG: -0.185 z-score
GACGATTTCAGTATCCAGACGTGCTAG: 0.135 z-score
TTAGGTCTCCTTTTCTTTTAGTGCTAG: 1.68 z-score
TCATAAAATGGACACTGTACTGTGCTA: 0.277 z-score
TTAGATTTCAGTCTCGATAAGTGCTAG: 0.981 z-score
TTATGACTGGGTTTCGGTTAGTGCTAG: 6.36 z-score
GCCACCGGTCTCCATGGGTCGTGCTAG: -0.379 z-score
AGATATTCAGGTATATAAAGGTGCTAG: 0.14 z-score
GACGGTTTCGGGTTCGGGACGTGCTAG: 10.2 z-score
GACGGACCGGGGTATCGGGACGTGCTA: -0.538 z-score
TTAGGTCCCCTTCTCCTTTAGTGCTAG: 1.09 z-score
GACGAAATGGGGTATCGAGACGTGCTA: -0.342 z-score
TAAGGACTGCTTATCCTTTAGTGCTAG: 0.346 z-score
TTAGATTTCGGGTTTCGAGTAGTGCTA: 4.84 z-score

Series 2
Target: RNA binding protein fox-1 homolog 2, RRM domain, GST-SBP tag (RBFOX2, Homo sapiens, UniProt O43251-10, residues 100-194)
Method: RNA Bind-n-Seq
Form: RNA
Sample: in vitro
Concentration: 365 nM
Setting: natural RNA segment, single round, ends assumed
Reference: no-protein control
Reading: higher = stronger binding
Quantity: RBNS enrichment (R)
Target sequence (chain): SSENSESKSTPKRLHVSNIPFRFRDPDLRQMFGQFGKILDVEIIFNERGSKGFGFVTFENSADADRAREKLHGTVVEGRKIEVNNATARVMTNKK
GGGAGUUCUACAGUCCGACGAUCCAAUGGUACUGUUUCUUAGUGUUUUCAAUUGGAACAUAUCUUGUCUCACAGAGCUUUAAAUUAUUCUCCUAAGUUUCUUGUGGAUGAAGCGCUCUCAUCUAACCUAUGUUUGGAAUUCUCGGGUGCCAA: 0.402
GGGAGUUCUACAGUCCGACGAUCGACCCAUGGCCAUGGAACCCUGAAGAAGCAUGUCUGGCCGCCUCUGAGCUCCUCCCACCCUCCUCCAGGAACCUCCACAUCUCCAAAAAUCUCCCUGUUGACUCAGUGCCUGGAAUUCUCGGGUGCCAA: 1.94
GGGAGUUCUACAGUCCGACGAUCGAUUAAGGGCCUGGCCCCCAGGGUUGUCCAGCUCCAUAAGGUGGAGCUGGGCAAGAUUUUGGGUUUGCUGCUCCCUGAAGCUGGAUUCUUUCAUACGAUACUCUUUCUCAUGGAAUUCUCGGGUGCCAA: 0.335
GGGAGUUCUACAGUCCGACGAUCAACCCAGGUUAAAUACAGCCCAUGCACAAAGCCACAGGCCAAAGCCUAUGGAAUUGUUUUUAAUCAUCAAAUUUAACCAUUUUCAUAACUGGUUCCUGGAGGUGUGCAGUUGGAAUUCUCGGGUGCCAA: 0.347
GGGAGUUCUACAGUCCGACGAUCGUAGAAAGCAUUGAAAUGACUGUCAUUAACCACACAGUCCUGGAGGCAGAGAUGCAGUUACCUACCCUAGCUUUUGAUGGGUUCUCUUACCUGUAGUAGCCUUAUCCCUGUGGAAUUCUCGGGUGCCAA: 0.398
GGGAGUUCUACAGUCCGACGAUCAAGGAUAUGAACAUUUUCAAGAACUCUGCUGAGGUCACUUAGAGCGCCAUCACAACUUAUUUGUGUGACUAAUUGCCUAGAUUGUAAGCUCUUUGAGGGCAGGGCUUGUCUGGAAUUCUCGGGUGCCAA: 0.832
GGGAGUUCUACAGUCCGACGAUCGCAUCUCUAGAGACAGAUACUAUCCAGCCAUCUGUCUGCCUUGUCUUUUGCAGUACUUCUCCAUGCCUUCCCUGCUACAAGUGUUUUUAGAUGUUAUUACUGUACUUUCCUGGAAUUCUCGGGUGCCAA: 1.04
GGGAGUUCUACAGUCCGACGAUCAGCAGAUGACUACUUUUCGAAGUAAUGCUGCUCCUUCCUAAAAGUCUGUUUUCAAUCCUGGUAAUAUUAGGGGCACUGCGGCACCUAAGAAGCCUUAAAUGAGAGCUAAUUGGAAUUCUCGGGUGCCAA: 0.807
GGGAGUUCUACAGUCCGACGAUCAAGAACCUCUCUAUGUCCCUUUUUUUAAUUUAAAAAAAAUGACUCUUGUCUAAUAUUCGUCUAUAAGGGAUUAAUUUUCAGACCCUUUAAUAAGUGAGUGCCAUAAGAAAUGGAAUUCUCGGGUGCCAA: 0.698

Series 3
Target: RING finger protein unkempt homolog, zinc fingers 1-6, GST-SBP tag (UNK, Homo sapiens, UniProt Q9C0B0, residues 30-357)
Method: RNA Bind-n-Seq
Form: RNA
Sample: in vitro
Concentration: not given
Setting: RNA with constant flanks, ends assumed
Reference: input RNA pool
Reading: higher = stronger binding
Quantity: bound/input enrichment
Construct (chain): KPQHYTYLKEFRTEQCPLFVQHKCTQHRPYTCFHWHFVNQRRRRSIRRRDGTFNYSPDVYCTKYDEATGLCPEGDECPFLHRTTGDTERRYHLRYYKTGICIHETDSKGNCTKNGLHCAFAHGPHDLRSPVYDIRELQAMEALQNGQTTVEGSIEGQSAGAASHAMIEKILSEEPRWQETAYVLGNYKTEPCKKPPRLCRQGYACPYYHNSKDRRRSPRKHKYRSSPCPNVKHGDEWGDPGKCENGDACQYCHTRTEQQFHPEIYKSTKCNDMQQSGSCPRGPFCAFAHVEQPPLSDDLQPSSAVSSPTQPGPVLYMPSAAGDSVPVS
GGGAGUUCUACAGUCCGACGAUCACAGCAUUCAUAGUAGAAAGAGACUUUGGUGGAGUCACUAAUGGGAAACCCGAAGAUAAAUCCGGCAUUCGGGGCUCCAACACUUGUGAAGUCCAUUUUGAAAACACCAAGAUACCUGUGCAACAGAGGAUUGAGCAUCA: 0.182 ratio
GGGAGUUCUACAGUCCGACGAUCGAGGAGUCUGGGUUCAGGGAGCCCGUGCUGGAUGCCAAGUCGGAGGUCACGGGCCAGCUUACCGAUUUUCAGUGGAAACUGGGCAUGGCUGUGAGCUCUGACAGCUGCAGAUCUCUCAAGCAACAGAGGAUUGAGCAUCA: 0.0523 ratio
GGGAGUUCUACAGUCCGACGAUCAUAACAUUACACGAAAUGGCAGAAACAGAUGAAGGAUGGUUGGAUGUUGUCCAGUCUUUAAUCCGAGUUAUUCCACUGGAAGAUCCACUGGGACCAGCUGUUAUAACAUUGUUACUAGAUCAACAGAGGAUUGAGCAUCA: 0.129 ratio
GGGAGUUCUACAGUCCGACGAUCUGUGGCUUUAACAUUUUAUGCAACUAUUUAUGAAGACCUCUGUUGUACCUGUAAUAAAUAUACCGAAAAAGCACAUACUUCGUAUGGUGAGCUUUAUGGUUUUGUGUGUGUGUUGGGGUUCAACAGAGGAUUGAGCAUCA: 0.45 ratio
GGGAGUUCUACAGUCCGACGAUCUUUGAUGUAAGAAUUGAACGGGACGCACAAGAGAUGGCUGAUAGUUUGGGAGUUAGAAUCUUCCGUGCAGAAAUUAUUUAUCACUUAUUUGAUGCCUUUACAAAAUACAGACAGGACUACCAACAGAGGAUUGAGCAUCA: 1.21 ratio
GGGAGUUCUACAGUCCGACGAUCUUGUGGGCGUUCUCGGGGAGCUGCUGCCGUAGCUGCCGCCGCCGCUACCACCGCGUUCGGGUGCCGAAUUUGGAAUCCCUGCGCCGCGUUAACAAUGAAGCAGAGUUCGAACGUGCCGGCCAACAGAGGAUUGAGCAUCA: 0.112 ratio
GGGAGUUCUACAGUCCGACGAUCCCUUUCUUAGCAGUUAACCGAGAGCGGCGCCUCCCUCCGCGAGGAAACGGCAGCGUGUGCUGCCGCGUGGGUAUGGCCGACUACUCCACAGUGCCUCCGCCGUCGUCUGGCUCGGCUGGCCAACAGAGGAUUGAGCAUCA: 0.519 ratio
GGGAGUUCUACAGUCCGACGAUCUGUGGAAGUGCCCCGUGUUUGCUAUGCCGAUGCUGUCCUAGUGGAAACAACUCCACUGUAACCCGAUUGAUCUAUGCACUUUUCUUGCUUGUUGGAGUAUGUGUAGCUUGUGUAAUGUUGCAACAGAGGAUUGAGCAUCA: 0.195 ratio
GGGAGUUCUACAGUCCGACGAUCAGAGUGCUGGGAUUAAAGCAGAUAUAAUUUCUACAGUAGAGUUUAAUCAUUCUGGAGAAUUACCCGCCACAGGAGAUAAAGGUGGGAGAGUUGUCAUCUUUCAACAAGAGCAGGAGAACACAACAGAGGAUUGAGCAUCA: 0.59 ratio
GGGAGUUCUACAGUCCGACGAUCAGUAAGAAUCUACCAAUUCUCAGGCACCAAGGGCAGCAGUUGGCAAACAAGUUGCAAUGUCCUUUUGCCGAUGUACCUGCUGGUACAUAUCCUCGUAAAUUUAAUGAAACCCAAAUAAAGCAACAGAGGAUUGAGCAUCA: 0.0777 ratio
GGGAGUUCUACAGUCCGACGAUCGUUUACAUCUUUGGUGAUGGACGAGGCCUUAUUGAAGGAAAUGACAUUUAUGGCAAUGCAUCCGCAGGAAUUCAAAUUAGGACAAACAGUUGUCCAAUUGUUCGGCAUAACAAAAUUCAUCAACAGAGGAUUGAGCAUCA: 0.204 ratio

Series 4
Target: Histone acetyltransferase KAT6A, both winged helices, GST fusion (KAT6A, Homo sapiens, UniProt Q92794, residues 1-181)
Method: protein binding microarray
Form: double-stranded DNA, one strand shown
Sample: in vitro
Concentration: not given
Setting: 8-mer, flanks averaged, mean of 2 arrays, mostly near background
Reference: not given
Reading: higher = stronger binding
Quantity: E-score
Residues (chain): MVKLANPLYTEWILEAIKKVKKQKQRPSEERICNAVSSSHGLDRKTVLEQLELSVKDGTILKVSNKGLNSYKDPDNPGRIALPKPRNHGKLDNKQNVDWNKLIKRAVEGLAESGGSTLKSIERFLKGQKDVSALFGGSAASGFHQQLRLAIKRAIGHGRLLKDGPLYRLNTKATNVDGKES
CGCGGAAC: 0.322
GATTGTAA: -0.129
AGCGGCGC: 0.317
CGTATATA: -0.0103
TCTCAAAA: -0.196
CTTGAATA: -0.0723
ACTACATC: -0.128
CCCGCTAA: 0.233
AAAGAGCC: -0.00943
TACCGGGA: 0.213
ATTAAAGG: -0.112
AGCCGTCC: 0.172
CGAGCCAA: -0.175
GTCACACA: -0.0904
ACTCTTAT: -0.207
ATGGTTCC: 0.03
GCCTGGAA: -0.235
CTAATAAC: 0.00517
CTCACTGC: -0.11
TGTGCTAA: 0.0399
ACTACTTC: 0.00082
GTTTCGCA: 0.011
GTCGTATA: 0.0597
AGACTTAT: -0.21
AAAGTCAA: -0.103

A few entries again (series 1):
GACGGTTTCGGTTCCGGGATGTGCTAG: 12.5 z-score
TTAGAATTCAGACTGGATTAGTGCTAG: -0.185 z-score
GACGATTTCAGTATCCAGACGTGCTAG: 0.135 z-score
TTAGGTCTCCTTTTCTTTTAGTGCTAG: 1.68 z-score
TCATAAAATGGACACTGTACTGTGCTA: 0.277 z-score
TTAGATTTCAGTCTCGATAAGTGCTAG: 0.981 z-score
